Assay results pooled from the literature.
Lines come from different studies, so protocols differ. Numbers after ± are the reported error.

`Clc1ccc(Cl)c(-c2ccccc2Cl)c1` has an IC25 of 8 µM (gap junction, rat; gap junctional communication, scrape loading dye transfer; WB-F344 rat liver epithelial; 1 h).
`C#Cc1nc(C(=O)N2CCC(NC(=O)c3cnc(-c4ccccc4)s3)(c3nc4ccccc4n3C)CC2)cs1` — result for “IFNβ mRNA level”: “inhibited” (STING (mouse); inhibitor, RT-qPCR; iBMDMs; concentration not given, 2 h, with: 500 nM diABZI).
`N[C@@H](CCC(=O)O)C(=O)O` has an IC50 of 0.16 µM (rat kainate glutamate receptor; radioligand binding).
`Oc1ccc(-c2ccc(Cl)cc2)c(Cl)c1` has an IC50 of 19 µM (gap junction, rat; gap junctional communication, scrape loading dye transfer; WB-F344 rat liver epithelial; 1 h).
With `Cc1c(COC(=O)[C@@H]2[C@H](/C=C(\Cl)C(F)(F)F)C2(C)C)cccc1-c1ccccc1` (racemic) the relative interaction was 187% (human FXRα-RXRα; protein-protein interaction, antagonist, mammalian two-hybrid; COS-7 cells; concentration not given, PGC1α co-transfected, with: GW4064; baseline: GW4064 alone).
`CC(=O)N[C@@H](CSCCC=O)C(=O)O` has a kcat of 0.01 s⁻¹ (porcine kidney aminoacylase 1; substrate; without Co2+).
`C[C@H](CCCC(C)(C)O)[C@H]1CC[C@H]2[C@@H]3CC=C4C[C@@H](O)CC[C@]4(C)[C@H]3CC[C@]12C` gave a potentiation of 20.4 ± 5.3% (NMDA receptor, rat; peak ion current, potentiator; rat hippocampal neurons; 10 µM, with: NMDA 10 µM, co-applied).
`C/C=C1\C(=O)C[C@H]2[C@@H]3CCC4=CC(=O)CC[C@]4(C)[C@H]3CC[C@]12C`: activity “inactive” (human FXR; reporter gene; HEK293 FXR-bla cells; concentration not given).
With `Cn1cccc1-c1cccnc1` the inhibition was 4.75% (sigma receptor 2; radioligand binding; 50 µM).
`Clc1cccc(-c2cccc(Cl)c2)c1` has an IC25 of 18 µM (gap junction, rat; gap junctional communication, scrape loading dye transfer; WB-F344 rat liver epithelial; 1 h).
`COc1ccc(N2C(=O)N(c3c(C)cccc3Cl)Cc3cnc(Nc4ccc(C5CCN(C)CC5)cc4OC)nc32)nc1` has an inhibition of 2.55% (COT1, human; kinase activity; 0.5 µM).
`O=C1c2c(O)ccc(O)c2C(=O)c2c(NCCNCCO)ccc(NCCNCCO)c21` has an IC50 of 0.358 µM (double-stranded RNA; RNA intercalation, thiazole orange displacement; with: thiazole orange).
`CCCCCCO` gave an EC50 of 1.07 µM (Aedes aegypti OR15/Orco; agonist, two-electrode voltage clamp; Xenopus oocytes).
`Oc1ccc(-c2cc(Cl)ccc2Cl)c(Cl)c1` has an IC50 of 11 µM (gap junction, rat; gap junctional communication, scrape loading dye transfer; WB-F344 rat liver epithelial; 1 h).
Under plasma 11-deoxycortisol, `C[C@]1(CO)Cc2ncn(-c3ccc(C#N)c(Cl)c3)c2C(=O)O1` is recorded as “increased” (aldosterone synthase; inhibitor; human, plasma; 80 mg, days 14 and 15, European multiple ascending dose; baseline: baseline).
For `CCn1c(-c2nc3cc(C(=O)N4CCC[C@@H](N)C4)cc(OC)c3n2C)cc2cccnc21`, protein citrullination read “inhibited” (PAD4; immunoblot; human neutrophils; 10 µM, with: A23187 or Staphylococcus aureus stimulation).
With `N[C@@H](Cc1c[nH]c2ccccc12)C(=O)O` the kcat/Km was 7000 M⁻¹ s⁻¹ (tryptophan indole-lyase Escherichia coli; substrate, biochemical).
The IC25 of `Clc1ccc(-c2cc(Cl)ccc2Cl)cc1` is reported as 13 µM (gap junction, rat; gap junctional communication, scrape loading dye transfer; WB-F344 rat liver epithelial; 1 h).
With `Oc1ccc(-c2nc(-c3ccncc3)c(-c3ccc(F)cc3)[nH]2)cc1` the inhibition was 20 to 30% (p38 MAPK (human); inhibitor, RT-PCR, refers to: SOCS3 mRNA; UT7/EPO; concentration not given, 1 h, with: rHuEPO).
`c1ccc(C(NCCNC(c2ccccc2)c2ccccc2)c2ccccc2)cc1` has an inhibition of 37% (GABAA chloride channel, rat; binding; 10 µM, Eurofins selectivity panel, with: TBOB).
For `CCOP(=O)(OCC)Oc1nc(Cl)c(Cl)cc1Cl`, the inhibition was 8% (carboxylesterase (mouse); PON1 knockout mouse, liver; dermal, 0.75 mg/kg, 4 h).
The inhibition of `O=C(Nc1cccnn1)N1CCN([C@@H]2CCOc3cc(C(F)(F)F)ccc32)CC1` is reported as 12% (NMDA; Cerep BioPrint; 20 µM).
For `COC(=O)[C@]1(O)C[C@@H]2O[C@@]1(C)n1c3ccccc3c3c4c(c5c6ccccc6n2c5c31)C(=O)NC4`, the remaining activity was 80.8 ± 7.22% (human TRPM8; HEK293; 5 µM, 24 h; baseline: control).
Under activity, `O=C1c2ccccc2C(=O)C1c1ccccc1` is recorded as “inactive” (human FXR; reporter gene; HEK293 FXR-bla cells; concentration not given).
The IC50 of `COc1ncccc1-c1cnn2ccc(N3CCN(C(=O)OC(C)C)CC3)nc12` is reported as over 25 µM (T-type calcium channel; inhibitor).
`Cc1ccccc1OP(=O)(Oc1ccccc1C)Oc1ccccc1C` — result for carboxylesterase inhibition: “inhibited” (carboxylesterase (mouse); inhibitor; PON1+/+ mice, serum; dermal, 10 mg/kg, 24 h).
With `CO[C@H]1C[C@H](O[C@@H]2/C(C)=C/C[C@@H]3C[C@@H](C[C@]4(CC[C@H](C)[C@@H](C5CCCCC5)O4)O3)OC(=O)[C@@H]3C=C(C)/C(=N/O)[C@H]4OC/C(=C\C=C\[C@@H]2C)[C@]43O)O[C@@H](C)[C@@H]1O` the IC50 was 17.9 ± 0.6 µM (human FXR; HEK293 cells).
`Clc1ccccc1-c1ccccc1Cl` has an IC50 of 23 µM (gap junction, rat; gap junctional communication, scrape loading dye transfer; WB-F344 rat liver epithelial; 1 h).
`CC(C)NC[C@@H](C(=O)N1CCN(c2ncnc3c2[C@H](C)C[C@H]3Cl)CC1)c1ccc(Cl)cc1` gave a response duration of 24 h (Akt; inhibitor; mouse BT-474 xenograft; oral, 100 mg/kg).
`O=c1[nH]c2ccccc2n1C1CCN(Cc2ccc(-c3[nH]c4cc5ncnc5cc4nc3-c3ccccc3)cc2)CC1` has a remaining activity of 95.9 ± 8.79% (human TRPM8; HEK293; 5 µM, 24 h; baseline: control).
`Oc1cc(Cl)cc(-c2cccc(Cl)c2)c1` has an IC25 of 25 µM (gap junction, rat; gap junctional communication, scrape loading dye transfer; WB-F344 rat liver epithelial; 1 h).
`O=C1Nc2ccc3ncsc3c2/C1=C/c1cnc[nH]1` has a remaining activity of 100 ± 9.09% (human TRPM8; HEK293; 5 µM, 24 h; baseline: control).
`CCC(C)(C)c1ccc(O)cc1`: “average chemical shift perturbation” 0.046 ppm (HBV core protein Cp149 dimer; solution NMR; 4 molar equivalents, pH 7.5, 295 K, average over eight residues; baseline: apo Cp149 dimer).

Repeated from above:
With `CO[C@H]1C[C@H](O[C@@H]2/C(C)=C/C[C@@H]3C[C@@H](C[C@]4(CC[C@H](C)[C@@H](C5CCCCC5)O4)O3)OC(=O)[C@@H]3C=C(C)/C(=N/O)[C@H]4OC/C(=C\C=C\[C@@H]2C)[C@]43O)O[C@@H](C)[C@@H]1O` the IC50 was 17.9 ± 0.6 µM (human FXR; HEK293 cells).
`Clc1ccccc1-c1ccccc1Cl` has an IC50 of 23 µM (gap junction, rat; gap junctional communication, scrape loading dye transfer; WB-F344 rat liver epithelial; 1 h).
`CC(C)NC[C@@H](C(=O)N1CCN(c2ncnc3c2[C@H](C)C[C@H]3Cl)CC1)c1ccc(Cl)cc1` gave a response duration of 24 h (Akt; inhibitor; mouse BT-474 xenograft; oral, 100 mg/kg).
